Measurements of several laboratories.
Lines come from different studies, so protocols differ.
Effect on: DPPH scavenging

O=C1O[C@H]([C@@H](O)CO)C(O)=C1O gave an IC50 of 59.6 µM (15 min).
For Fc1ccc2[nH]c(-c3ccccc3OCc3ccccc3)nc2c1, the IC50 was 1.56 µM (absorbance).
COc1ccc(Nc2nc(Nc3ccc(OC)cc3)c3c(-c4ccc5ccccc5n4)cc(-c4ccccc4)nc3n2)cc1 has an IC50 of 158 µM (absorbance; 30 min).
CC1(C)C2CC[C@]1(C)C(=O)/C2=C/c1ccco1 gave an IC50 of 430 µM (15 min).
With Cc1ccc(C(=O)N(C(=O)c2ccc(C)cc2)C(=S)N2N=C(c3ccc(C)cc3)CC2c2ccc(F)cc2)cc1 (centres unmarked) the IC50 was 105 µM (absorbance).
c1ccc(-c2cc(-c3ccc4ccccc4n3)c3c(N4CCOCC4)nc(N4CCOCC4)nc3n2)cc1 has an IC50 of 149 µM (absorbance; 30 min).
O=C1NC2(CCCCC2)c2nc3c(c(-c4ccccc4)c21)CCCC3 gave an IC50 of 33 µg/mL.
The IC50 of c1ccc(Nc2nc(Nc3ccccc3)c3c(-c4ccc5ccccc5n4)cc(-c4ccccc4)nc3n2)cc1 is reported as 162 µM (absorbance; 30 min).
Cc1ccc(C(=O)N(C(=O)c2ccc(C)cc2)C(=S)N2N=C(c3ccc(F)cc3)CC2c2cccc(F)c2)cc1 (centres unmarked) has an IC50 of 103 µM (absorbance).
The IC50 of Cc1cc2nc(-c3ccc(OCc4ccccc4)cc3)[nH]c2cc1C is reported as 1.58 µM (absorbance).
Cc1ccc(C(=O)N(C(=O)c2ccc(C)cc2)C(=S)N2N=C(c3ccc(F)cc3)CC2c2ccc(F)cc2)cc1 (centres unmarked) has an IC50 of 105 µM (absorbance).
For CSc1nc(Cl)c2c(-c3ccc4ccccc4n3)cc(-c3ccccc3)nc2n1, the IC50 was 181 µM (absorbance; 30 min).
Clc1ccc2[nH]c(-c3ccccc3OCc3ccccc3)nc2c1 gave an IC50 of 2.36 µM (absorbance).
Clc1ccc(Nc2nc(Nc3ccc(Cl)cc3)c3c(-c4ccc5ccccc5n4)cc(-c4ccccc4)nc3n2)cc1 has an IC50 of 155 µM (absorbance; 30 min).
For CC1(C)C2CC[C@]1(C)C(=O)/C2=C/c1cccs1, the IC50 was 586 µM (15 min).
O=C1O[C@H]([C@@H](O)CO)C(O)=C1O has an IC50 of 124 µM (30 min).
CC1(C)C2CC[C@]1(C)C(=O)/C2=C/c1cc2ccccc2o1 gave an IC50 of 429 µM (15 min).
O=C1O[C@H]([C@@H](O)CO)C(O)=C1O has an IC50 of 31.3 µM.
C[C@@H]1O[C@@H](OC[C@H]2O[C@@H](Oc3c(-c4ccc(O)c(O)c4)oc4cc(O)cc(O)c4c3=O)[C@H](O)[C@@H](O)[C@@H]2O)[C@H](O)[C@H](O)[C@H]1O has an IC50 of 20.6 µM (absorbance; 30 min).
CC1(C)C2CC[C@@]1(C)C(=O)/C2=C/c1ccsc1 gave an IC50 of 463 µM (15 min).
For CS(=O)(=O)c1nc2nc(-c3ccccc3)cc(-c3ccc4ccccc4n3)c2c(=O)[nH]1, the IC50 was 178 µM (absorbance; 30 min).
With CC1(C)C2CC[C@@]1(C)C(=O)/C2=C/c1ccoc1 the IC50 was 606 µM (15 min).
For O=C1O[C@H]([C@@H](O)CO)C(O)=C1O, the IC50 was 9.6 µM (absorbance).
For O=C(O)c1ccccc1Nc1nc2nc(-c3ccccc3)cc(-c3ccc4ccccc4n3)c2c(=O)[nH]1, the IC50 was 177 µM (absorbance; 30 min).
NC1=NC(=S)NC12CCCCC2 gave an IC50 of 263 µg/mL.
For Cc1ccc(C(=O)N(C(=O)c2ccc(C)cc2)C(=S)N2N=C(c3ccccc3)CC2c2ccc(C)cc2)cc1 (centres unmarked), the IC50 was 116 µM (absorbance).
